Measured values of several laboratories.
“And” joins repeats or separate records; there may be more than shown.
EGFR T790M: Epidermal growth factor receptor (EGFR, Homo sapiens, UniProt P00533, T790M)
EGFR: Epidermal growth factor receptor (EGFR, Homo sapiens, UniProt P00533)
EGFR L858R: Epidermal growth factor receptor (EGFR, Homo sapiens, UniProt P00533, L858R)
EGFR G719C: Epidermal growth factor receptor (EGFR, Homo sapiens, UniProt P00533, G719C)

Compound	target	assay	setting	how to read	quantity	result
CNC(=O)C1CCN(c2cc(C)c(F)cc2NC(=O)c2ccc(-c3cc(O)ccc3C)c(C)c2)CC1	EGFR T790M	binding, competition with immobilised ligand	1 µM		remaining binding	100%
CC(C)=CC1OC(C)(C)C2C=C3C(=O)C(Cl)=CC(O)C3C3C(O)C4OC4C(=O)C132 (stereo not shown)	EGFR (Homo sapiens, UniProt P00533, del747-750/T751S)	cell-free assay, competition with immobilised ligand	10 µM		remaining binding	95%
O=C=[N][Ru-4]123([n]4c5ccc(O)cc5c5c6c(c7cc(F)c[n+]1c7c54)C(=O)NC6=O)[S+]1CC[S+]2CC[S+]3CC1 (stereo not shown)	EGFR T790M	enzyme activity	100 nM, human enzyme, with: 10 µM ATP	baseline: untreated	remaining activity	111%
COc1cc(OC)c(F)c(/C=C/c2cnc3ccn(S(=O)(=O)c4cn(CCF)cn4)c3n2)c1F	EGFR		1000 nM		inhibition	0%
CC(C)[C@H](NC(=O)[C@H](CCC(=O)O)NC(=O)[C@H](CCC(=O)O)NC(=O)[C@H](Cc1ccc(O)cc1)NC(=O)[C@H](CCC(=O)O)NC(=O)[C@H](CC(=O)O)NC(=O)[C@H](CC(=O)O)NC(=O)[C@H](CCC(=O)O)NC(=O)c1ccc2c(c1)C1(OC2=O)c2ccc(O)cc2Oc2cc(O)ccc21)C(N)=O	EGFR	enzyme activity, substrate			Km	40.2 µM
Nc1ncc2c(n1)-c1c([nH]c3ccc(C4=CCOCC4)cc13)CCC2	EGFR (Homo sapiens, UniProt P00533, A750P/del747-749)	binding, competition with immobilised ligand	1 µM		remaining binding	82%
C=CC(=O)N1CCc2ccc(-n3c(=O)ccc4cnc5ccc(-c6cnn(C)c6)cc5c43)cc21	EGFR (Homo sapiens, UniProt P00533, G719S)	KINOMEscan	1 µM	baseline: DMSO control	remaining binding	67%
COCC12C(=O)NC3C4(C(OC)CC1O)C1CC5(O)C(OC)C(O)C(OC(C)=O)(C1C5OC(=O)c1ccccc1)C3(O)C(OC)C24 (stereo not shown)	EGFR T790M	kinase activity, inhibitor, ProQinase kinase profiling	25 µM	baseline: control	remaining activity	103% and 104%
CNC1C[S+]2CC[S+]3CC[S+](C1)[Ru-4]321([N]=C=S)[n]2c3ccc(OC)cc3c3c4c(c5cc(F)c[n+]1c5c32)C(=O)NC4=O (stereo not shown)	EGFR L858R	KinomeScan	0.1 µM	baseline: untreated	remaining binding	98%
O=c1c(-c2ccc(Cl)c(CN3CCOCC3)c2)coc2cc(O)ccc12	EGFR	enzyme activity, inhibitor	1 µM		remaining activity	95%
Cc1ccc(-c2c(/C=C(\C#N)C(=O)NC(C)C)n(CCCO)c3ncnc(N)c23)cc1	EGFR L858R	cell-free assay, competition with immobilised ligand	1 µM		remaining binding	66%
Cc1cnc2nc1Nc1cccc(c1)COC/C=C/COCc1cc(ccc1OCCN1CCOCC1)N2	EGFR G719C		concentration not given	baseline: untreated control	remaining activity	91%
CCN1CCN(Cc2ccc(C(=O)Nc3ccc(C)c(NCc4cnc5[nH]ccc5c4OC)c3)cc2C(F)(F)F)CC1	EGFR	binding, competition with immobilised ligand	1 µM		remaining binding	4%
COc1c(Cl)cccc1Nc1c(-c2ccncc2C#C[C@@]2(C)CCCN2C(=O)/C=C/CN(C)C)[nH]c2c1C(=O)NCC2	EGFR (Homo sapiens, UniProt P00533, L861Q)	cell-free assay, competition with immobilised ligand	3 µM		remaining binding	0%
C=CC(=O)N1CCCC(n2c(=O)c3ncccc3n(Cc3ccc(Oc4ccccc4)cc3)c2=O)C1 (stereo not shown)	EGFR (Homo sapiens, UniProt P00533, del746-750)	cell-free assay, competition with immobilised ligand	1 µM		remaining binding	92%
COc1ccc(NC(=O)Nc2ccc3c(c2)C(=O)N(C(C)CO)CC(C)C(CN(C)Cc2ccc4c(c2)OCO4)O3)cc1 (stereo not shown)	EGFR	kinase activity, KinaseProfiler	0.03 µM, species human	baseline: control	remaining activity	104%
CCN1CCN(Cc2ccc(NC(=O)c3ccc(C)c(NC(=O)c4cncc(-c5cccs5)c4)c3)cc2C(F)(F)F)CC1	EGFR G719C	binding, competition with immobilised ligand	1 µM		remaining binding	0.1%
C=C1CCCCCCCCCC(CO)C1=O (stereo not shown)	EGFR L858R	cell-free assay	10 µM		remaining signal	100%
CNC(=O)C[C@H](Cc1ccc(C#N)cc1)NC(=O)c1cc(-c2ccc(CN[C@H](C)c3ccc(C)cc3)o2)ccc1Cl	EGFR	enzyme activity, inhibitor	1 µM		activity vs control	104%
